Published values gathered from unrelated publications.
± gives the spread as reported.

Structure (SMILES)	tested on	assay	system	conditions	quantity	value
CN(C)c1ccc(-c2nc3ccc(OCCCCCN4CCN5CCN(CC4)CC(=O)[O][Al]([18F])[O]C(=O)C5)cc3s2)cc1			ICR mouse, spleen	intravenous, 30 min	tissue uptake	1.76 ± 0.14 %ID/g
NC12CNCCNCC(NCc3ccc(CNC(=O)CCCC(=O)NCc4ccc(-c5nncnn5)cc4)cc3)(CNCCNC1)CNCCNC2.[64Cu+2]			athymic nude mice, SW1222 xenograft, stomach with contents	4 h, pretargeting with huA33-TCO, 24 h interval	tissue uptake	0.56 ± 0.2 %ID/g
O=C([O-])CN1CCN(CC(=O)[O-])CCN(CC(=O)NCCc2ccc3c(c2)C2C=CCC2C(c2cc4c(cc2Br)OCO4)N3)CCN(CC(=O)[O-])CC1.[111In+3] (stereo not drawn)			mouse, Hec50 endometrial tumour, large intestine	4 h post injection	tissue uptake	8.48 ± 0.67 %ID/g
C[C@H](CN(C)Cc1ccccc1)NC(=O)c1ccc(-c2noc(C(F)(F)[18F])n2)cc1		PET imaging	female Sprague-Dawley rats, heart	intravenous, 30 min	tissue uptake	0.52 ± 0.16 SUV
CCCC[C@H](NC(=O)CNC(=O)CNC(=O)CN1CCN(CC(=O)O)CCN(CC(=O)O)CCN(CC(=O)O)CC1)C(=O)N[C@H]1CC(=O)NCCCC[C@@H](C(N)=O)NC(=O)[C@H](Cc2c[nH]c3ccccc23)NC(=O)[C@H](CCCNC(=N)N)NC(=O)[C@@H](Cc2ccccc2)NC(=O)[C@H](Cc2c[nH]cn2)NC1=O [lead-203 labelled]			C57 mouse, liver	intravenous, 0.056 MBq, 4 h	tissue uptake	1.08 ± 0.34 %ID/g
O=C([O-])c1cccc(CN(CCN(Cc2cn(Cc3ccccc3)nn2)Cc2cccc(C(=O)[O-])n2)Cc2cn(Cc3ccccc3)nn2)n1.[64Cu+2]			healthy athymic nude mice, liver	intravenous, 4 h	tissue uptake	12.4 %ID/g
CC(C)[C@H](NC(=O)[C@@H]1CCCN1C(=O)[C@H](CCCNC(=N)N)NC(=O)[C@H](CS)NC(=O)[C@H](Cc1c[nH]c2ccccc12)NC(=O)[C@H](CCCNC(=N)N)NC(=O)[C@@H](Cc1ccccc1)NC(=O)[C@H](Cc1c[nH]cn1)NC(=O)[C@H](CCC(=O)O)NC(=O)[C@H](CS)NC(=O)[C@H](CS)NC(=O)[C@@H]1CC(=O)N[C@@H](CCCNC(=N)N)C(=O)NCC(=O)N[C@@H](CC(=O)O)C(=O)N[C@H](Cc2ccc(O)cc2)C(=O)N1)C(N)=O [technetium-99m labelled]			C57 mouse, female, B16/F1 melanoma, skin	intravenous, 0.037 MBq, 24 h	tissue uptake	0.32 ± 0.13 %ID/g
CCCC[C@H](NC(=O)CNC(=O)CNC(=O)CN1CCN(CC(=O)O)CCN(CC(=O)O)CC1)C(=O)N[C@H]1CC(=O)NCCCC[C@@H](C(N)=O)NC(=O)[C@H](Cc2c[nH]c3ccccc23)NC(=O)[C@H](CCCNC(=N)N)NC(=O)[C@@H](Cc2ccccc2)NC(=O)[C@H](Cc2c[nH]cn2)NC1=O [gallium-67 labelled]			female C57 mice, B16/F1 melanoma, stomach	intravenous, 0.037 MBq, 0.5 h	tissue uptake	1.79 ± 0.22 %ID/g
CCCC[C@@H]1NC(=O)[C@@H](NC(=O)[C@H](CCC(=O)O)NC(=O)CNC(=O)CN2CCN(CC(=O)O)CCN(CC(=O)O)CCN(CC(=O)O)CC2)CCCCNC(=O)C[C@@H](C(N)=O)NC(=O)[C@H](C(C)C)NC(=O)[C@@H]2CCCN2C(=O)[C@H](CCCNC(=N)N)NC(=O)CNC(=O)[C@H](Cc2c[nH]c3ccccc23)NC(=O)[C@H](CCCNC(=N)N)NC(=O)[C@@H](Cc2ccccc2)NC(=O)[C@H](Cc2c[nH]cn2)NC(=O)[C@H](CCC(=O)O)NC1=O [gallium-67 labelled]			normal C57 mice, skin	intravenous, 0.037 MBq/mouse, 4 h	tissue uptake	0.46 ± 0.15 %ID/g
COc1cc(CNC(=O)C[C@H](C)CCC=C(C)C)ccc1OCc1cn(-c2ccc(Br)cc2)nn1	HOP-92	SRB		10 µM, 48 h	growth percent	45.9%
CCCC[C@H](NC(=O)CNC(=O)CNC(=O)CN1CCN(CC(=O)O)CCN(CC(=O)O)CC1)C(=O)N[C@H]1CC(=O)NCCCC[C@@H](C(N)=O)NC(=O)[C@H](Cc2c[nH]c3ccccc23)NC(=O)[C@H](CCCNC(=N)N)NC(=O)[C@@H](Cc2ccccc2)NC(=O)[C@H](Cc2c[nH]cn2)NC1=O [copper-64 labelled]			female C57 mouse, B16/F1 melanoma, lung	intravenous, 0.037 MBq, 0.5 h	tissue uptake	2.05 ± 0.26 %ID/g
O=C(O)C1CN(Cc2ccc(-c3noc(-c4ccc(OCC[18F])c(C(F)(F)F)c4)n3)cc2)C1			Sprague-Dawley rat, male, normal, fat	iv, 30 min	tissue uptake	0.061 ± 0.003 %ID/g
COc1cc(CNC(=O)C[C@H](C)CCC=C(C)C)ccc1OCc1cn(-c2ccccc2Cl)nn1	SN12C	SRB		10 µM, 48 h	growth percent	69.6%
CCCC[C@H](NC(=O)CNC(=O)CNC(=O)CN1CCN(CC(=O)O)CCN(CC(=O)O)CCN(CC(=O)O)CC1)C(=O)N[C@H]1CC(=O)NCCCC[C@@H](C(N)=O)NC(=O)[C@H](Cc2c[nH]c3ccccc23)NC(=O)[C@H](CCCNC(=N)N)NC(=O)[C@@H](Cc2ccccc2)NC(=O)[C@H](Cc2c[nH]cn2)NC1=O [copper-64 labelled]			female C57 mouse, B16/F1 melanoma, spleen	intravenous, 0.037 MBq, 2 h	tissue uptake	0.82 ± 0.26 %ID/g
CC(C)[C@H](NC(=O)[C@@H]1CCCN1C(=O)[C@H](CCCNC(=N)N)NC(=O)[C@H](CS)NC(=O)[C@H](Cc1c[nH]c2ccccc12)NC(=O)[C@H](CCCNC(=N)N)NC(=O)[C@@H](Cc1ccccc1)NC(=O)[C@H](Cc1c[nH]cn1)NC(=O)[C@H](CCC(=O)O)NC(=O)[C@H](CS)NC(=O)[C@H](CS)NC(=O)CNC(=O)[C@@H]1CC(=O)N[C@@H](CCCNC(=N)N)C(=O)NCC(=O)N[C@@H](CC(=O)O)C(=O)N[C@H](Cc2ccc(O)cc2)C(=O)N1)C(N)=O [technetium-99m labelled]			C57 mouse, female, B16/F1 melanoma, pancreas	intravenous, 0.037 MBq, 0.5 h	tissue uptake	1.74 ± 0.29 %ID/g

A few entries again:
Structure (SMILES)	tested on	assay	system	conditions	quantity	value
C[C@H](CN(C)Cc1ccccc1)NC(=O)c1ccc(-c2noc(C(F)(F)[18F])n2)cc1		PET imaging	female Sprague-Dawley rats, heart	intravenous, 30 min	tissue uptake	0.52 ± 0.16 SUV
CCCC[C@H](NC(=O)CNC(=O)CNC(=O)CN1CCN(CC(=O)O)CCN(CC(=O)O)CCN(CC(=O)O)CC1)C(=O)N[C@H]1CC(=O)NCCCC[C@@H](C(N)=O)NC(=O)[C@H](Cc2c[nH]c3ccccc23)NC(=O)[C@H](CCCNC(=N)N)NC(=O)[C@@H](Cc2ccccc2)NC(=O)[C@H](Cc2c[nH]cn2)NC1=O [lead-203 labelled]			C57 mouse, liver	intravenous, 0.056 MBq, 4 h	tissue uptake	1.08 ± 0.34 %ID/g
